Measurements of several laboratories.
Lines come from different studies, so protocols differ. Several values in a cell are separate wells, animals, samples, runs or records. Numbers after ± are the reported error.

Substance | tested on | test | test system | setting | how to read | quantity | result
GWTLNSAGYLLGPHAVDNHRSFNDKHGFT-NH2 (C-amide) |  | RT-qPCR, refers to: Tgfb1 | peptide, chicken, DSS-induced colitis, ileum | ip, 50 µM, unit not given | relative to: Actb | mRNA level | 0.122 and 0.0758 and 0.0808 and 0.153 and 0.113 and 0.105 and 0.0876
nonaarginine | PorA peptide pore | peptide binding, planar bilayer single-channel recording |  | 0.5 µM, pH 7.4, -30 mV, cis side, 150 mM KCl |  | kon | 4e+07 ± 4e+06 M⁻¹ s⁻¹
fengycin |  | calcein leakage | DOPC/DOPG/CHOL liposomes | concentration not given, added: 20 wt% PEG-8000 |  | leakage time constant | 15 ± 2 min
HVLVMSATRR |  |  | peptide, C57BL/6J mice, male, serum | subcutaneous osmotic pump, 3 mg/kg/day peptide basis, 8 weeks |  | albumin | 3 g/dL and 2.9 g/dL
Met-enkephalin-Arg-Phe |  | antinociception, tail-flick | male ICR-CD1 mice | intracerebroventricular, 50 µg/animal, 45 min |  | maximum possible effect | 15.6% and 11.4% and -2.65% and -2.21% and 23.5% and 1.06% and -4.21% and 14.8%
GWTLNSAGYLLGPRRIDHLLMIKEMPIARGREEAPGA / YAVDNHRSFNDKHGFT-NH2 (C-amide) |  |  | Gnaq intestinal cKO mice, DSS colitis | ip, 3 µM, 2% DSS |  | colon length | 5.9 cm and 5.2 cm and 5.1 cm and 6 cm and 5.7 cm
Polymyxin B |  |  | mouse | intraperitoneal, 30 mg/kg single dose, day 6 |  | survival | 0%
aspterric acid |  | hypocotyl length | Arabidopsis thaliana Col-0 seeds | 25 µg/mL |  | inhibition | 98%
insulin human |  | refers to: QSER1 mRNA | EcoHIV-infected mouse, brain | i.p., dose not given | relative to: PBS | fold change | 1.05
hexaarginine | PorA peptide pore | peptide binding, planar bilayer single-channel recording |  | 0.5 µM, pH 7.4, +25 mV, trans side, 150 mM KCl |  | kon | 1.53e+07 ± 2e+06 M⁻¹ s⁻¹
polymyxin B |  | calcein leakage | DOPC/CHOL liposomes | concentration not given, added: 20 wt% PEG-8000 |  | leakage time constant | 3 ± 1 min
CRQLRKGKFFSEGGSGGTSFEQFWAWLWP |  |  | peptide, BALB/c nude mice, 786-O xenograft | 2.5 mg/kg | relative to: vehicle | relative tumour volume | decreased

Repeated from above:
Substance | tested on | test | test system | setting | how to read | quantity | result
HVLVMSATRR |  |  | peptide, C57BL/6J mice, male, serum | subcutaneous osmotic pump, 3 mg/kg/day peptide basis, 8 weeks |  | albumin | 3 g/dL and 2.9 g/dL
Met-enkephalin-Arg-Phe |  | antinociception, tail-flick | male ICR-CD1 mice | intracerebroventricular, 50 µg/animal, 45 min |  | maximum possible effect | 15.6% and 11.4% and -2.65% and -2.21% and 23.5% and 1.06% and -4.21% and 14.8%
